Measurements gathered from unrelated publications.
Each line is one published result; not all experiments were run side by side.
Sequence of UniProt Q8IVT5 (whole entry, looked up): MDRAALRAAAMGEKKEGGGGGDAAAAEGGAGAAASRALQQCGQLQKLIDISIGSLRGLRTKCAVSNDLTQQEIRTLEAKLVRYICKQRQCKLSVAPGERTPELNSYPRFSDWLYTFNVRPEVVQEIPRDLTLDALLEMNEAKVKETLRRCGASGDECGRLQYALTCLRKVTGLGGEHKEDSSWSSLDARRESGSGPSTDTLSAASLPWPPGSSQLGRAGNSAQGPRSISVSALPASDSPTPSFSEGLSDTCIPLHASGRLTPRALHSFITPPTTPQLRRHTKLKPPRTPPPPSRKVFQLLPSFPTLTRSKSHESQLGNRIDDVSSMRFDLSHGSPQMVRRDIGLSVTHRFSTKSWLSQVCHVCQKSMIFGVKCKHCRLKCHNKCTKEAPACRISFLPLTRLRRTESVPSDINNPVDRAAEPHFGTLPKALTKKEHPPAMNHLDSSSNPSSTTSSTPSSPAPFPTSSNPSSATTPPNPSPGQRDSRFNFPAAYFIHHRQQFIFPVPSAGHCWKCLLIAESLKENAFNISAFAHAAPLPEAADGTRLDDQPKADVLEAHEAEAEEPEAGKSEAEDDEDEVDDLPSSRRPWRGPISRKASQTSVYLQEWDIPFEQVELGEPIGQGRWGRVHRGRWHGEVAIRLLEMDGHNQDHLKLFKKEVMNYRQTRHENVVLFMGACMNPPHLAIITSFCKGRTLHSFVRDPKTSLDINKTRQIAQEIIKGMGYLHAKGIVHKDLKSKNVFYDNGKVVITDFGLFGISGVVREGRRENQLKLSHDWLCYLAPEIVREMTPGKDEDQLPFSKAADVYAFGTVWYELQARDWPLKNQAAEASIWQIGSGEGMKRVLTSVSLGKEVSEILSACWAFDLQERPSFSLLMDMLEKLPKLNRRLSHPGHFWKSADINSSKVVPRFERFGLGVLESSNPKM
Sequence of UniProt Q96AM1 (whole entry, looked up): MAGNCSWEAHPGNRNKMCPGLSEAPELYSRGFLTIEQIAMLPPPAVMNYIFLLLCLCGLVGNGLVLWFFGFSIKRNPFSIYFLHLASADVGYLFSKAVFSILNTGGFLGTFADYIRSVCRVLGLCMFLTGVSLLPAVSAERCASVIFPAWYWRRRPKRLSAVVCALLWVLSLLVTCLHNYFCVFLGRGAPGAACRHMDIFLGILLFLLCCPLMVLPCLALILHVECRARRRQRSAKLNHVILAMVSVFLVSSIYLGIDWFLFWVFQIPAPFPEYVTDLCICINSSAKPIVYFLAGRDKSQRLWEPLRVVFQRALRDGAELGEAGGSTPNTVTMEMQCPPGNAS
Sequence of UniProt P08172 (whole entry, looked up): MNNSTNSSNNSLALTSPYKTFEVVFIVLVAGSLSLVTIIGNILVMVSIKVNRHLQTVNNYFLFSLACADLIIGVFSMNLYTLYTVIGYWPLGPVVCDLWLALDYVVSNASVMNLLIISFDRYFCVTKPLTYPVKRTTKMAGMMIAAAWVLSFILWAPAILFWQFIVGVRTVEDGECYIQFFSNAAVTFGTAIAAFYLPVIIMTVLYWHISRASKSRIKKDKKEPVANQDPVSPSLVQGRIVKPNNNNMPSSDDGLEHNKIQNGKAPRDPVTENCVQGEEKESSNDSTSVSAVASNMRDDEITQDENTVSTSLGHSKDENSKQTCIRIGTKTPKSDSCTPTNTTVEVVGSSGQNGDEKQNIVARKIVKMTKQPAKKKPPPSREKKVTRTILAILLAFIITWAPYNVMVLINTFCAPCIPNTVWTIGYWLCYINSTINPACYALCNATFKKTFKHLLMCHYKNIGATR
Sequence of UniProt P26358 (whole entry, looked up): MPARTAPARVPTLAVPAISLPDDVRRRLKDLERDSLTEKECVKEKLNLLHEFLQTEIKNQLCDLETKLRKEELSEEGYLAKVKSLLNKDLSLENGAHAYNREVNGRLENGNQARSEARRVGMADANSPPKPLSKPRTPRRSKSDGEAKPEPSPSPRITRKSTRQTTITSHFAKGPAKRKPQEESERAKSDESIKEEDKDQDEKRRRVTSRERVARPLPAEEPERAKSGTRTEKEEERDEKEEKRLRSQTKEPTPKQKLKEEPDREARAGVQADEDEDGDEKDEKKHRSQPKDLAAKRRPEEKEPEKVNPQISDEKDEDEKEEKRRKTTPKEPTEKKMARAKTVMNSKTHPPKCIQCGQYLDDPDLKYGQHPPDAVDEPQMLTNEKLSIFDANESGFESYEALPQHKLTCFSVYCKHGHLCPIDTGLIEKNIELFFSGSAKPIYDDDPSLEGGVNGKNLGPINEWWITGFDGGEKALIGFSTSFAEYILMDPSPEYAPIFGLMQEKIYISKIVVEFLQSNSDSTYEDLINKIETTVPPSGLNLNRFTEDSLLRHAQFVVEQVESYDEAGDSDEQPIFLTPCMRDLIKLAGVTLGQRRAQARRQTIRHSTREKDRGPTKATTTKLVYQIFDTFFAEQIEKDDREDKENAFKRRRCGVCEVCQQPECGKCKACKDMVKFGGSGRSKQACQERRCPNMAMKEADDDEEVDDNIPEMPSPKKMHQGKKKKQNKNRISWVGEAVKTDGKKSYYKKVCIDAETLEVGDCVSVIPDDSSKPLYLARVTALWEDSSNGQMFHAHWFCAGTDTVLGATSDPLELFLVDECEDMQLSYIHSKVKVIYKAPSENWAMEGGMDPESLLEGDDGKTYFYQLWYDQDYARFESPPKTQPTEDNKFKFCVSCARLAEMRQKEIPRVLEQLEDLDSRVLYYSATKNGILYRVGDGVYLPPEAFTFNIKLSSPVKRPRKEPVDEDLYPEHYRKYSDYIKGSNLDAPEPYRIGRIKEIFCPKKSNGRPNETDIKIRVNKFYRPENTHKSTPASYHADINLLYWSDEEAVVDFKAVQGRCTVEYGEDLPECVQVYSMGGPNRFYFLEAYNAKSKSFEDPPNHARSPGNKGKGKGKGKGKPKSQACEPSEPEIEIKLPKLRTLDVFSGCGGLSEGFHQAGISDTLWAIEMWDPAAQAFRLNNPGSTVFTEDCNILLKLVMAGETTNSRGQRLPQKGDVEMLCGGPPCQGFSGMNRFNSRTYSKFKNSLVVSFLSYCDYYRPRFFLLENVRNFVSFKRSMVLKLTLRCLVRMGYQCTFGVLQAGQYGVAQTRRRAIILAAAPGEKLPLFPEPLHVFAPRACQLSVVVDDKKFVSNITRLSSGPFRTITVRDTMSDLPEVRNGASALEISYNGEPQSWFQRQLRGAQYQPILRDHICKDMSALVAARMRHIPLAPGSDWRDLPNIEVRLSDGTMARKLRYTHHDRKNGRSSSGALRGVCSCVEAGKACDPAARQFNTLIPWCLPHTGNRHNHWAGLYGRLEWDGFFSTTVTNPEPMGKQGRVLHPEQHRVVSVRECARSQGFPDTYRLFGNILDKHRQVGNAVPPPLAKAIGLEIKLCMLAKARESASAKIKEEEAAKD
Sequence of UniProt P78368 (whole entry, looked up): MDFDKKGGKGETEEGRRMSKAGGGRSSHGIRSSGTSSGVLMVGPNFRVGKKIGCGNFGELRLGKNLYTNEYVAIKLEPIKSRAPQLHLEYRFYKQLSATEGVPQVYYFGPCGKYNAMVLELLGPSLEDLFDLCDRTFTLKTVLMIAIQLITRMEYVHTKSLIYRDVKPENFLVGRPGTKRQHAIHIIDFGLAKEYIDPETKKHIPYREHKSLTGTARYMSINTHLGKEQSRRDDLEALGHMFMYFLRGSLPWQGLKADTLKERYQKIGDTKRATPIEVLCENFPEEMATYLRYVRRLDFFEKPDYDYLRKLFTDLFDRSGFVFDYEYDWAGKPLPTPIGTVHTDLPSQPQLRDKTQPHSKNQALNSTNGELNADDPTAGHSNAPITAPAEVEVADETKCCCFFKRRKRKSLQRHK
Sequence of UniProt P21917 (whole entry, looked up): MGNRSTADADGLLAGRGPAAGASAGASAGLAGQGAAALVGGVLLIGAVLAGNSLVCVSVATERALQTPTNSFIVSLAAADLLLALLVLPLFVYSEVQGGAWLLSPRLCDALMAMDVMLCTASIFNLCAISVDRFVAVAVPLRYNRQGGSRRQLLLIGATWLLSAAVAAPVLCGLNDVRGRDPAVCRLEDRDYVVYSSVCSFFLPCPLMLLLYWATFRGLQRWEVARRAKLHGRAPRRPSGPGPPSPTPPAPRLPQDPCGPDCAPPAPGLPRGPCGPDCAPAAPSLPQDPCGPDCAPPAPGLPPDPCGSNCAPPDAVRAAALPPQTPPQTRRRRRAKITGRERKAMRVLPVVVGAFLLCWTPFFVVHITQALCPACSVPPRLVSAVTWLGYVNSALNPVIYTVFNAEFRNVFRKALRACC
Sequence of UniProt Q96GS6 (whole entry, looked up): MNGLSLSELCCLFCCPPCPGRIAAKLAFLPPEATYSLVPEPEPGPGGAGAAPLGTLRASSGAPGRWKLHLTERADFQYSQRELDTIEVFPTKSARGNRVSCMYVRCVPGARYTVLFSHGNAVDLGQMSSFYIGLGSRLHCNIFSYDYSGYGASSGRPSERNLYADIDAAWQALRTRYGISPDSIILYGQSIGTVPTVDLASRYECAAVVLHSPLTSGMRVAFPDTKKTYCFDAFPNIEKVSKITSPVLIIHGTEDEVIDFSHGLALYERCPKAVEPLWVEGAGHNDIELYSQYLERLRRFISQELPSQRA
Sequence of UniProt P25021 (whole entry, looked up): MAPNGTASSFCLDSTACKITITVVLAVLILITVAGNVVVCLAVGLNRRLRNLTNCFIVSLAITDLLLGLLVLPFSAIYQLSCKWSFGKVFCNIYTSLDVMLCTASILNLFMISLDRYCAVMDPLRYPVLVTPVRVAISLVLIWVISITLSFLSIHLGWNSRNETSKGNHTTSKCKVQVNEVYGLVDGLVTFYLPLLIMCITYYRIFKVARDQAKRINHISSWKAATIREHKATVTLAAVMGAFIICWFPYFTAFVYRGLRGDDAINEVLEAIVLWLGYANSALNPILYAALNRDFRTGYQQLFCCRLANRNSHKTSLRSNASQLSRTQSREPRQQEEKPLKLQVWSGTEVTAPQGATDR

SMILES | target or system | assay | test system | setting | how to read | measurement | value
O=C(Nc1cccnn1)N1CCC(=Cc2cccc(Oc3ccc(C(F)(F)F)cn3)c2)CC1 | GABAB1B receptor, human | binding | – | 10 µM, together with: [3H]CGP-54626 | – | inhibition | 11%
CC[C@H](C)[C@@H]1NC(=O)[C@@H]2CCCN2C(=O)[C@H](CC(C)C)NC(=O)[C@H](CC(C)C)NC(=O)CNC(=O)[C@@H](NC(=O)[C@@H](NC(=O)[C@H](CC(=O)O)NC(=O)CNC(=O)[C@@H](NC(=O)[C@H](C)NC(=O)CNC(=O)[C@H](CCCCN)NC(=O)[C@H](CC(C)C)NC(=O)[C@H](CC(C)C)NC(=O)[C@H](CCCCN)NC(=O)CNC(=O)[C@@H](NC(=O)[C@@H](N)CC(C)C)C(C)C)C(C)C)C(C)C)CSSC[C@@H](C(=O)O)NC1=O | – | RNA-seq, item: Rab25 | mouse, traumatic brain injury model, frontal cortex and hippocampus | dose not given | baseline: TBI alone | log2 fold change | -4.84
CN(CCN1CCC(OC(=O)Nc2ccccc2-c2ccccc2)CC1)C(=O)c1ccc(CN2CCC(C(N)=O)CC2)cc1 | catechol O-methyltransferase | enzyme activity | – | 1 µM | – | inhibition | 5%
CC[C@H](C)[C@H](NC(=O)[C@H](Cc1ccccc1)NC(=O)[C@H](CCC(=O)O)NC(=O)[C@H](CCCNC(=N)N)NC(=O)[C@H](C)NC(=O)[C@H](C)NC(=O)[C@H](CCC(N)=O)NC(=O)[C@H](CCC(=O)O)NC(=O)[C@H](CCC(=O)O)NC(=O)[C@H](CC(C)C)NC(=O)[C@H](Cc1ccc(O)cc1)NC(=O)[C@H](CO)NC(=O)[C@H](CO)NC(=O)[C@@H](NC(=O)[C@H](CC(=O)O)NC(=O)[C@H](CO)NC(=O)[C@@H](NC(=O)[C@H](Cc1ccccc1)NC(=O)[C@@H](NC(=O)CNC(=O)[C@H](CCC(=O)O)NC(=O)[C@H](C)NC(=O)CCc1c[nH]cn1)[C@@H](C)O)[C@@H](C)O)C(C)C)C(=O)N[C@@H](C)C(=O)N[C@@H](Cc1c[nH]c2ccccc12)C(=O)N[C@@H](CC(C)C)C(=O)N[C@H](C(=O)N[C@@H](CCCNC(=N)N)C(=O)NCC(=O)N[C@@H](CCCNC(=N)N)C(=O)N[C@@H](CCCCNC(=O)COCCOCCNC(=O)COCCOCCNC(=O)CC[C@H](NC(=O)CCCCCCCCCCCCCCCCC(=O)O)C(=O)O)C(=O)NCC(=O)NCC(=O)N[C@@H](CO)C(=O)N[C@@H](CCCCNc1c(NCCCCCN(O)C(=O)CCC(=O)NCCCCCN(O)C(=O)CCC(=O)NCCCCCN(O)C(C)=O)c(=O)c1=O)C(=O)O)C(C)C [zirconium-89 labelled] | – | – | rat, femur | intravenous, 3 nmol/kg, 4 h | – | tissue uptake | 0.17 %ID/g
O=C(c1ccc(Cl)cc1)N1CCN2C(=O)N(OC(=O)N3CCOc4ccccc43)C(=O)C2C1 (stereo not drawn) | Alpha/beta hydrolase domain-containing protein 17A (ABHD17A, Homo sapiens, UniProt Q96GS6) | enzyme activity, inhibitor, MS-based ABPP | SW-620 in situ | 10 µM, 2 h, 37 °C | baseline: compound over DMSO, lower = stronger inhibition | median ratio | 1.1
COc1cc(Nc2ncc(F)c(Nc3ccc4c(n3)NC(=O)C(C)(C)O4)n2)cc(OC)c1OC | CDK2 (Homo sapiens, UniProt P24941) | KINOMEscan | – | 10 µM | – | inhibition | 38%
O=c1ccc2ccccc2o1 | HRH2 (Homo sapiens, UniProt P25021) | antagonist radioligand binding | – | 10 µM, SafetyScreen44 | – | inhibition | 4.76%
Oc1ccc2c3c1O[C@H]1[C@@H](O)CC[C@@]4(O)[C@@H](C2)N(CC2CCC2)CC[C@]314 | Mas-related G-protein coupled receptor member F (MRGPRF, Homo sapiens, UniProt Q96AM1) | β-arrestin recruitment, TANGO luminescence, item: MRGPRF | – | concentration not given | baseline: basal luminescence | log2 fold change | 0.283
COc1ccc(N2C(=O)N(c3c(C)cccc3Cl)Cc3cnc(Nc4ccc(C5CCN(C)CC5)cc4OC)nc32)nc1 | CSNK1G2 (Homo sapiens, UniProt P78368) | kinase activity, inhibitor | – | 0.5 µM, kinase CK1-GAMMA2 | – | inhibition | 3%
C[C@H]1CN(c2n[nH]c3nc(N[C@H]4CC[C@H](NS(=O)(=O)CCC(F)(F)F)CC4)ncc23)CCO1 | KSR1 (Homo sapiens, UniProt Q8IVT5) | inhibitor, Kinobeads competition profiling | – | 0.16 µM | baseline: vehicle | relative abundance | 0.97
Cn1cccc1-c1cccnc1 | DRD4 (Homo sapiens, UniProt P21917) | binding | – | 50 µM | – | inhibition | -23.3%
CN(C(=O)n1cnc(-c2ccc[n+]([O-])c2)c1)C1CCCCC1 | GRM5 (Homo sapiens, UniProt P41594) | radioligand binding | – | 50 µM, together with: [3H]quisqualic acid | – | inhibition | -10%
CN1CCN(c2cc(-c3ccncc3)c(-c3ccc4ccccc4c3)nn2)CC1 | CHRM2 (Homo sapiens, UniProt P08172) | antagonist, FLIPR | – | 10 µM | – | inhibition | -1.2%
O=C(Nc1cnccc1Cl)N1CCN(Cc2ccc3c(c2)OC(F)(F)O3)CC1 | GABAB1B receptor, human | binding | – | 10 µM, together with: [3H]CGP-54626 | – | inhibition | 13%
COc1cc2c(NC3CCN(C)CC3)cc(-c3ccc(C)o3)nc2cc1OCCCN1CCCC1 | DNMT1 (Homo sapiens, UniProt P26358) | enzyme activity | – | 100000 nM | – | inhibition | 98.8%

A few entries again:
SMILES | target or system | assay | test system | setting | how to read | measurement | value
COc1cc(Nc2ncc(F)c(Nc3ccc4c(n3)NC(=O)C(C)(C)O4)n2)cc(OC)c1OC | CDK2 (Homo sapiens, UniProt P24941) | KINOMEscan | – | 10 µM | – | inhibition | 38%
O=c1ccc2ccccc2o1 | HRH2 (Homo sapiens, UniProt P25021) | antagonist radioligand binding | – | 10 µM, SafetyScreen44 | – | inhibition | 4.76%
